Results collected from several papers.
Each numbered part is a random draw from the data of one study; scales do not carry over between parts. Positions count from the first letter of the parent shown.

Study 1
Target: RNA binding protein fox-1 homolog 2, RRM domain, GST-SBP tag (RBFOX2, Homo sapiens, UniProt O43251-10, residues 100-194)
Technique: RNA Bind-n-Seq
Molecule type: RNA
Medium: in vitro
Tested at: 365 nM
Notes: natural RNA segment, single round, ends assumed
Reference: no-protein control
Reading: higher = stronger binding
Constant ends, left off below: GGGAGUUCUACAGUCCGACGAUC … UGGAAUUCUCGGGUGCCAA
Target sequence (chain): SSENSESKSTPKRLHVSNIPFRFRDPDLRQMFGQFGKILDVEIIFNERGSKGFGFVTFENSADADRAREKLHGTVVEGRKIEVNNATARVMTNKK
| Sequence | RBNS enrichment (R) |
| --- | --- |
| UGCUUCUUGCUGGGUUUUUGUACAUGUAAACAUUGUCAAGCUGUGAAAGAAAAUGGCUGGAGGUGUGCUUUGUGUGAAAGGUGAGCAAUAAAGUAUCUGUUAAGUUCUCU | 0.381 |
| GGGAAGCUUGGGAGAGCAAUAGUAUGGUGAGCCCCUUAGAGAUGAGCGCCUACUCCUUCUUGGCGAAUGCUGCCUUCAGAUGCUUACCAAGUGGUCACUGCAUCUAGUAA | 0.678 |
| CUGGCUUGUAUUAUCUGUCCAAAAGGAAGCCUCUUCAUCUCCCGGUGCCUUGGUUGACUAUUUUGGAAAUAGGCAUAUCAAGGUUCCUGAUUCAGCACUUUGCUCUUUUA | 0.287 |
| AAUGUUGACUCCAAGGUCCCUAGGAAAUCUCACGAUACACUGGCCGCUGGUUGGUACACUGAUUUCCAGGAAAAGCCCCAGAAGCAGUAGAGGGAGAGCCAUGUACUUGG | 0.305 |
| CUGCCGCCCCACCCUGUGCUCUCCGGAUCCCACUAGCCACAGGCAUCUCCAGGAGGGCCCGGGGCUCCUGCGUCCCUCGGGGUCUGUCAUGUGACCUGUUUGGCCCCUAA | 0.489 |
| GACACAGUGCACACUUAGACAUGGCUCAGCACCGCGGGUGGUAGUAGUUCAAGGAGAAACCUGUCCAAGUUGAUGCCAAAGAUUUACUGCCAACCUUUUCCCCCCAAGGG | 0.541 |
| UUGAUGGCAAAAAAAAAAAAGCGACUUCGAGUUUGCUCCCCUUUGCUUGAAGAGACCCCCUCCCCCUUCCAACGAGCUUCCGGACUUGUCUGCACCCCCAGCAAGAAGGC | 0.843 |
| CUGGCCUCUGACUGCAUUGCUUUAGGUCGUAUUCAAACUCUCUUAAACAUUGUGCCAAGAAACGAUUUGUGGGAUUCAUGUCCCGAAACCAUUAAAUCUAUUGUUUGGAA | 0.714 |

Study 2
Target: Protein max, full length (MAX, Homo sapiens, UniProt P61244-2, residues 1-151)
Technique: protein-binding microarray
Molecule type: double-stranded DNA, one strand shown
Medium: in vitro
Tested at: not given
Notes: k-mer, scored over probes, only values ≥0.25
Reading: higher = stronger binding
| Sequence | E-score |
| --- | --- |
| CGCCCCAA | 0.253 |
| GCGCACAC | 0.288 |
| GAGCGTGC | 0.377 |
| GCTGCTCA | 0.257 |
| CAGGCACG | 0.313 |
| CTCCCCAA | 0.289 |
| AGCGTGAC | 0.435 |
| ATACACGA | 0.252 |

Study 3
Target: Interferon regulatory factor 7, full length, phosphomimetic (IRF7, Homo sapiens, UniProt Q92985, residues 1-503, S101K/S471D/S472D/S475D/S476D/S477D/S483D/S484D/S487D)
UniProt Q92985, sequence (whole entry, unmodified, looked up): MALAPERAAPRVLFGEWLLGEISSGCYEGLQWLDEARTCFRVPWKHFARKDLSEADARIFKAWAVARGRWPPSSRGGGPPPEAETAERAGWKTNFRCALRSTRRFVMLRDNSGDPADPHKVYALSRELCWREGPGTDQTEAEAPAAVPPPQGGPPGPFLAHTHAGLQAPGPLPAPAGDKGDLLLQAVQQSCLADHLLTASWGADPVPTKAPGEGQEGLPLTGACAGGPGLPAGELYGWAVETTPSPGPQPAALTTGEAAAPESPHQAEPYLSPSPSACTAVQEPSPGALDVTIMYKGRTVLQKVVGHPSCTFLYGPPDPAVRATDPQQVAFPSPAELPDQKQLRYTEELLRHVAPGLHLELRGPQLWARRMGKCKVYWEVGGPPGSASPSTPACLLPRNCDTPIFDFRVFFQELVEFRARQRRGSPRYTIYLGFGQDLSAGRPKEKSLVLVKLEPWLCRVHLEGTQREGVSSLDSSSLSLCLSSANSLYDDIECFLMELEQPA
Technique: protein-binding microarray
Molecule type: double-stranded DNA, one strand shown
Medium: in vitro
Tested at: 250 nM
Notes: 60-bp whole probe
With: salmon DNA 0.4 mg/ml
Reference: random background probes
Reading: higher = stronger binding
Constant ends, left off below: GCCTAGCAC … GTCTTGATTCGCTTGACGCTGCTG
| Sequence | log fluorescence |
| --- | --- |
| GACGGTATCGACACTCGGGACGTGCTA | -0.162 z-score |
| TCAGTTCCCTATATAAGACTGTGCTAG | 2.14 z-score |
| GACGATCTCAGTTTCGAGATGTGCTAG | 5.14 z-score |
| TCATGTTTTTTTCTACTACTGTGCTAG | 1.47 z-score |
| TTTTGCTTTCTTTTTGCACTGTGCTAG | 2.3 z-score |
| TAAGGACTGGGGTTTCGGTTAGTGCTA | 5.99 z-score |
| ATGCATGTGCTGTCTCAGAGTGTGCTA | -0.284 z-score |
| TTAGAACTGAGACTGGATTAGTGCTAG | -0.0495 z-score |

Mixed results
Starting sequence: viral docking peptide; CKVKRKLFGSENI; partner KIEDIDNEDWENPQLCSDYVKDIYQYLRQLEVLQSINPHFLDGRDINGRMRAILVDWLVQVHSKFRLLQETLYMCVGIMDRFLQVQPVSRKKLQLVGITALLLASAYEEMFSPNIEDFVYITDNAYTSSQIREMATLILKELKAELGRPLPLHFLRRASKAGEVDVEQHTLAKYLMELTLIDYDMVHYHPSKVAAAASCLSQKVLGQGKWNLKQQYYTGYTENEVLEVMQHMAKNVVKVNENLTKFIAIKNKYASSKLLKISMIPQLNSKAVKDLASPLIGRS
| Substitution | target | assay | test system | setting | scale | quantity | result |
| --- | --- | --- | --- | --- | --- | --- | --- |
| CKVKRKLFGAENI [S10A] | CCNB2, cyclin fold, Cln2 fusion (human) | yeast growth competition, sequencing | yeast | weak parent motif | reference: not given, higher = stronger binding | normalised enrichment score | 0.965 |

For quick reference, copied from above (study 3):
| Sequence | log fluorescence |
| --- | --- |
| TCAGTTCCCTATATAAGACTGTGCTAG | 2.14 z-score |
| GACGATCTCAGTTTCGAGATGTGCTAG | 5.14 z-score |
| TCATGTTTTTTTCTACTACTGTGCTAG | 1.47 z-score |
